Published values collected from several papers.
Lines come from different studies, so protocols differ. Several values in a cell are separate wells, animals, samples, runs or records. ± gives the spread as reported.
CES1: Liver carboxylesterase 1 (CES1, Homo sapiens, UniProt P23141)
Chain of UniProt P23141 (whole entry, looked up): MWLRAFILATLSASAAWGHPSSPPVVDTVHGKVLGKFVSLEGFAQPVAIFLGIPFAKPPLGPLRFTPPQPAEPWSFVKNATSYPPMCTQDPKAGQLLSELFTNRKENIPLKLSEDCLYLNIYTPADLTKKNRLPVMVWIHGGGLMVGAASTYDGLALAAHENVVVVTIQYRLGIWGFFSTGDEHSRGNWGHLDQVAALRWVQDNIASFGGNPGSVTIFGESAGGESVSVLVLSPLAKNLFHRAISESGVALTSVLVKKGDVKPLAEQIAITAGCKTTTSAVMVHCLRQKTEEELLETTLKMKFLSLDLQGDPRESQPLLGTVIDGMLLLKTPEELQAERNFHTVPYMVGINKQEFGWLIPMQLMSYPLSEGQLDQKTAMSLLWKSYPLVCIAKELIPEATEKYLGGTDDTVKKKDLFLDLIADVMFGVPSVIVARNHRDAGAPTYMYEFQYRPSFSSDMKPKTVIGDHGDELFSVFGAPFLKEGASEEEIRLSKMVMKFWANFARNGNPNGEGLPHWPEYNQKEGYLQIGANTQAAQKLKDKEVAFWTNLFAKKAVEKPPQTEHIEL
KLRK1 with ULBP6: NKG2-D type II integral membrane protein, with ULBP6 (KLRK1, Homo sapiens, UniProt P26718)
Chain of UniProt P26718 (whole entry, looked up): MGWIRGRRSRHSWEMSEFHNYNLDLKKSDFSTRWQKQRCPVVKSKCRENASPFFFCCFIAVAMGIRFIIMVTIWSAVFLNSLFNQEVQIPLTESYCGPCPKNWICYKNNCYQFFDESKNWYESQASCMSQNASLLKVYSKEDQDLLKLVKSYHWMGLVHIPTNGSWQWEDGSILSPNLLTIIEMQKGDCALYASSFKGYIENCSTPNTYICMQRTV
BCDIN3D: RNA 5'-monophosphate methyltransferase (BCDIN3D, Homo sapiens, UniProt Q7Z5W3)
Chain of UniProt Q7Z5W3 (whole entry, looked up): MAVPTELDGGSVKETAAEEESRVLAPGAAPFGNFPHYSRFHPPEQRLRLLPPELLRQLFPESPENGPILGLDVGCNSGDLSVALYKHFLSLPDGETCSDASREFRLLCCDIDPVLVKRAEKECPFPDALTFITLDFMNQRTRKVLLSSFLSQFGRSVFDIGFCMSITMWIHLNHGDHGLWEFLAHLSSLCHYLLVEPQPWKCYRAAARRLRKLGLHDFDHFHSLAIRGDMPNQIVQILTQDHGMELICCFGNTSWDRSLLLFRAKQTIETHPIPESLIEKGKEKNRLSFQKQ
NNMT: Nicotinamide N-methyltransferase (NNMT, Homo sapiens, UniProt P40261)
Chain of UniProt P40261 (whole entry, looked up): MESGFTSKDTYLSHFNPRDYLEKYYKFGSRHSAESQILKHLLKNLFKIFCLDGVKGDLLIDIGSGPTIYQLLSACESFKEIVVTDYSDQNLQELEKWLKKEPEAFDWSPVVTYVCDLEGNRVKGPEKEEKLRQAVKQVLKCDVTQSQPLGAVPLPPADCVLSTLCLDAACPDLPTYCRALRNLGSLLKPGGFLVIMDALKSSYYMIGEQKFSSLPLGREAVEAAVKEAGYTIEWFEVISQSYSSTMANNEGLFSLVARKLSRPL
Chain of UniProt P05067 (whole entry, looked up): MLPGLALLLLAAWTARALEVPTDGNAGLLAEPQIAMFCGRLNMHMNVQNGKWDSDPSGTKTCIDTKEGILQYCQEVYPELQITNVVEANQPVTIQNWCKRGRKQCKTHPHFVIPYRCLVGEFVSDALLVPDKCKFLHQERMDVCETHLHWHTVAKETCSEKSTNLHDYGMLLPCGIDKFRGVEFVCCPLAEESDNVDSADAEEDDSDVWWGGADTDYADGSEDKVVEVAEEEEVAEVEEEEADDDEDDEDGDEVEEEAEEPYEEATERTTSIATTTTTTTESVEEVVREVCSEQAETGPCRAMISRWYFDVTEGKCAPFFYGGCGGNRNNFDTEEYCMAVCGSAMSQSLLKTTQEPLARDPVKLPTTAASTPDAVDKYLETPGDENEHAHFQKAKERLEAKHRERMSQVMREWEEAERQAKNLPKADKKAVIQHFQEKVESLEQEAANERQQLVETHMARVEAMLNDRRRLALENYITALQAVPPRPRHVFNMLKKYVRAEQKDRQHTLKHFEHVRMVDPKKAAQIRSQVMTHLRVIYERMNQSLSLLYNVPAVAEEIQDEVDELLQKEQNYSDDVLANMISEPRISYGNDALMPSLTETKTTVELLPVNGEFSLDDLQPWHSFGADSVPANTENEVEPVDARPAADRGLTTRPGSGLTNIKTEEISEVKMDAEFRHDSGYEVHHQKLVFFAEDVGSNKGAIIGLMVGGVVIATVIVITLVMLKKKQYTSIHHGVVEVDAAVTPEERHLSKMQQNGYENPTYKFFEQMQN
Chain of UniProt P37136 (whole entry, looked up): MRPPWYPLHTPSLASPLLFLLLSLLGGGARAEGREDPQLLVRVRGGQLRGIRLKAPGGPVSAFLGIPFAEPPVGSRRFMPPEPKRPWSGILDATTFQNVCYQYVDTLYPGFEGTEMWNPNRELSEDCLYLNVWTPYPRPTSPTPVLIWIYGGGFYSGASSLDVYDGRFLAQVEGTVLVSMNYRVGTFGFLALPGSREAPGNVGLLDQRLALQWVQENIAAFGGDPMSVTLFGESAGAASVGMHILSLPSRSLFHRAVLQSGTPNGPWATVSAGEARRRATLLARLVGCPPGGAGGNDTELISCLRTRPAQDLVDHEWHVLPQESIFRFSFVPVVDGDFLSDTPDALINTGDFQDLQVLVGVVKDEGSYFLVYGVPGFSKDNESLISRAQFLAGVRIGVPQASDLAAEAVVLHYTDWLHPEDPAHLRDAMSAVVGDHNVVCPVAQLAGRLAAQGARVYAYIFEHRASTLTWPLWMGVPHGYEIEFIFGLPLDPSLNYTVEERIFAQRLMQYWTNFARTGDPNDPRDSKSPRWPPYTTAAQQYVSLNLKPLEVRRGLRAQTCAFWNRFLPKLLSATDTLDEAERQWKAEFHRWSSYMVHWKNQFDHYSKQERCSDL
Chain of UniProt P43219 (whole entry, looked up): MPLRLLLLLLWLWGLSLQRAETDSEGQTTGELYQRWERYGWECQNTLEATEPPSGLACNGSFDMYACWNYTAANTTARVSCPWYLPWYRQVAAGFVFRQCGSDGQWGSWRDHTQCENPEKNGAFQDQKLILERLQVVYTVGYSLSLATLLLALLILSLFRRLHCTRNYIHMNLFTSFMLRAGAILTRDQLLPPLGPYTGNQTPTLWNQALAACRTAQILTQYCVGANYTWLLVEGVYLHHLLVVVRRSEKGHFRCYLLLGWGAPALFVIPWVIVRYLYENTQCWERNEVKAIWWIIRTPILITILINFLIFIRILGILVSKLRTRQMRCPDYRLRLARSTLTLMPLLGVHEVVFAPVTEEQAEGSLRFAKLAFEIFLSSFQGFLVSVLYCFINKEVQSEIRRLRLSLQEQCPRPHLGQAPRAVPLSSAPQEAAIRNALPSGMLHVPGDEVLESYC
Chain of UniProt P05186 (whole entry, looked up): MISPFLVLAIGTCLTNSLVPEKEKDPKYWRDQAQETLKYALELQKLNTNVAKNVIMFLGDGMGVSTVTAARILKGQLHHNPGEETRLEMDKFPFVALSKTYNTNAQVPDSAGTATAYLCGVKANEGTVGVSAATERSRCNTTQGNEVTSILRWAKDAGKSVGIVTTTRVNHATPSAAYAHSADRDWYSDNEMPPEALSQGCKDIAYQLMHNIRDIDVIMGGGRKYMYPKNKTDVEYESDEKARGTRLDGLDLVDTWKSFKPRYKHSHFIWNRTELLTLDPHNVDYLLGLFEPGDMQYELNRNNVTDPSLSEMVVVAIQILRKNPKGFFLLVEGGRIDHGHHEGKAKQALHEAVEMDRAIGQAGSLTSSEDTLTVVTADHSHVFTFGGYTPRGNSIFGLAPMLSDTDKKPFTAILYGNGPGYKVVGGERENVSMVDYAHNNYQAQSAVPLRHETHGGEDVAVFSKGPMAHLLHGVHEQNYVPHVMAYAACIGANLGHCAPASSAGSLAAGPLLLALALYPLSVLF
Chain of UniProt Q920B6 (whole entry, unmodified, looked up): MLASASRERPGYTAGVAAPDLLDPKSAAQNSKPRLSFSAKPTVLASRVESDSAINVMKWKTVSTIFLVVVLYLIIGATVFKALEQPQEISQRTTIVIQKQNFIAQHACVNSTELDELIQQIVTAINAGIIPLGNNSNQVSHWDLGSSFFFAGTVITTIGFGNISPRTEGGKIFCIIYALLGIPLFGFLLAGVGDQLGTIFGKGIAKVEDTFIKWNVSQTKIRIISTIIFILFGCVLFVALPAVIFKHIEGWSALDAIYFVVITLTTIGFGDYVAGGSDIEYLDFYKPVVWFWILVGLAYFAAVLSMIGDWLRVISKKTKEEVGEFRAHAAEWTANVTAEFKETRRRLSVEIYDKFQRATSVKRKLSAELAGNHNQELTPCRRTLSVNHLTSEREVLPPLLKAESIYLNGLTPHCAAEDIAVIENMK
Chain of UniProt P13798 (whole entry, looked up): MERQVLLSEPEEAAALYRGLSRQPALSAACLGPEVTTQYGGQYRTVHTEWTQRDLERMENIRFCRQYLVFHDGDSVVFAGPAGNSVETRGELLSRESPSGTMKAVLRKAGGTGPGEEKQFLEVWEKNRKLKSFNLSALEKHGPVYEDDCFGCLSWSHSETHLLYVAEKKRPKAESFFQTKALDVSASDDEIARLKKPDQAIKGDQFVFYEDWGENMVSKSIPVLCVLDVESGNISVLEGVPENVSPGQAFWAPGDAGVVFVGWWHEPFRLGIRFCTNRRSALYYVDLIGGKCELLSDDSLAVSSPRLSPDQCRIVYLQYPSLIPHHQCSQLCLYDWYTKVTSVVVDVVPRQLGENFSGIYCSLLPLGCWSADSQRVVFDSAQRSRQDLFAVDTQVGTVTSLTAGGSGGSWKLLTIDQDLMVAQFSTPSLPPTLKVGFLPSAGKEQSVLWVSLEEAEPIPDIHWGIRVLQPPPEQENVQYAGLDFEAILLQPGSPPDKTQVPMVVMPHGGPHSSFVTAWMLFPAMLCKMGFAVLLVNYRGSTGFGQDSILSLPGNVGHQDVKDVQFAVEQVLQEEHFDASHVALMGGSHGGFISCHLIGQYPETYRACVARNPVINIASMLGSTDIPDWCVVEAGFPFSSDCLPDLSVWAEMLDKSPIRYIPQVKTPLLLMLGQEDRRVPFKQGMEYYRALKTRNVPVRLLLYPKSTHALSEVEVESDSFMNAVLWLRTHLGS

SMILES = CCOc1ccc2nc3cc(N)ccc3c(N)c2c1; target = CES1; test = enzyme activity, inhibitor, absorbance; IC50 = 99.3 µM
SMILES = COc1ccc(F)cc1S(=O)(=O)Nc1cnc2c(c1)C(=O)NCCO2; target = ALPL (Homo sapiens, UniProt P05186); test = enzyme activity, inhibitor, absorbance; conditions = pH 7.5; IC50 = 0.0034 µM
SMILES = CCCCCCCCCC(=O)N[C@@H](CCCNC(=N)N)C(=O)N[C@H](C(=O)N[C@@H](CCCCN)C(=O)N[C@@H](CCCNC(=N)N)C(=O)CCl)C(C)C; target = Proprotein convertase subtilisin/kexin type 7 (Homo sapiens, UniProt Q16549); test = enzyme activity, inhibitor; IC50 = 0.000251 µM
SMILES = CCCCC[N+](CCCCC)(CCCCC)CCCCC; target = Kcnk2 (Rattus norvegicus, UniProt Q920B6, T157C); test = ion current, inhibitor, inside-out patch clamp; IC50 = 123 ± 11 µM
SMILES = CC[C@H](C)[C@H](NC(=O)[C@H](Cc1ccccc1)NC(=O)[C@@H](NC(=O)[C@@H](NC(=O)[C@H](CO)NC(=O)[C@H](CO)NC(=O)[C@@H](NC(=O)[C@H](CCSC)NC(=O)[C@@H](N)CCC(N)=O)C(C)C)C(C)C)[C@@H](C)O)C(=O)O; target = HLA class I histocompatibility antigen, A alpha chain, allele A*02:01 (Homo sapiens, UniProt P04439); test = binding, competitive radioligand binding; conditions = 48 h, 37 °C, with: radiolabelled FLPSDYFPSV 1 nM; IC50 = < 0.2 µM
SMILES = COC(=O)C1CN1S(=O)(=O)c1cccc(C(F)(F)F)c1 (stereo not drawn); target = PDIA3 (Homo sapiens, UniProt P30101); test = enzyme activity, inhibitor, absorbance; conditions = pH 7.6; IC50 = 200 µM
SMILES = COc1ccc(-c2coc3cc(OCCN4CCCCC4)ccc3c2=O)cc1; target = Ache (Rattus norvegicus, UniProt P37136); test = enzyme activity, inhibitor, Ellman; IC50 = 0.264 µM
SMILES = CNC(=O)C1OC(n2cnc3c(NCc4cccc(I)c4)ncnc32)C(O)C1O (stereo not drawn); target = ABCB1 (Homo sapiens, UniProt P08183); test = transport, inhibitor; IC50 = 50 µM
SMILES = CNC(=O)C1CCN(c2ccccc2NC(=O)c2ccc(-c3cc(O)ccc3C)c(C)n2)CC1; target = EPHA4 (Homo sapiens, UniProt P54764); test = target engagement in cells, BRET; IC50 = 0.0023 µM
SMILES = CNC(=O)C(NC(=O)c1ccccc1-c1ccc(C(F)(F)F)cc1)c1cccc(C(F)(F)F)c1 (stereo not drawn); target = KLRK1 with ULBP6; test = ligand binding, inhibitor, TR-FRET; test system = HEK293 expressing NKG2D and DAP10; conditions = with: ULBP6-AF647; IC50 = > 20 µM
SMILES = CCC1=CC2CN3CCc4c([nH]c5ccccc45)C(C(=O)OC)(C2)C13 (stereo not drawn); target = NR1I2 (Homo sapiens, UniProt O75469); IC50 = 20.5 µM
SMILES = CCCCCCCCCNC(=O)CC(=O)c1ccccc1; target = lasR (Pseudomonas aeruginosa, UniProt P25084); test = reporter gene, antagonist; test system = Escherichia coli, JLD271 with LasR plasmid; conditions = with: OdDHL 2 nM; IC50 = 2.3 µM
SMILES = CC(NC(=O)c1ccncc1)C(=O)N1CCCC1B(O)O (stereo not drawn); target = APEH (Homo sapiens, UniProt P13798); test = enzyme activity, inhibitor, fluorescence; IC50 = 0.104 µM
SMILES = NC[C@@H](CC[C@H](N)C(=O)O)C[C@H]1O[C@@H](n2cnc3c(N)ncnc32)[C@H](O)[C@@H]1O; target = BCDIN3D; test = enzyme activity, inhibitor, radiometric; IC50 = 1.7 µM
SMILES = CC(C)[C@H](NC(=O)[C@H](C)NC(=O)[C@@H](N)Cc1ccccc1)C(=O)N1CCC[C@H]1C(=O)O; target = DPP4 (Homo sapiens, UniProt P27487); test = enzyme activity, inhibitor, absorbance; IC50 = 427 µM
SMILES = CCc1ccc([C@@H]2C[C@H](C(F)(F)F)n3ncc(C(=O)NCc4ccc(OC)cc4)c3N2)cc1; target = Cytochrome P450 2C9 (CYP2C9, Homo sapiens, UniProt P11712); test = inhibitor; IC50 = 4.4 µM
SMILES = CC[C@H](C)[C@@H]1NC(=O)[C@H](CCCNC(=N)N)NC(=O)[C@@H]2CCCN2C(=O)[C@H](C(C)C)NC(=O)[C@H](CO)NC(=O)[C@H]([C@@H](C)O)NC(=O)CNC(=O)[C@H](CC(=O)O)NC(=O)[C@@H](NC(=O)[C@@H](N)C(C)C)CSSC[C@@H](C(=O)N[C@H](C(=O)O)C(C)C)NC1=O; target = ACVR2B (Homo sapiens, UniProt Q13705); test = Smad2/3 reporter gene, antagonist; test system = HEK-293T; conditions = 4 h, with: myostatin 1 ng/mL; IC50 = > 100 µM
SMILES = Cc1ccc(S(=O)(=O)N(CCC(=O)N(C)C)CC(=O)[C@H](C)NC(=O)OCc2ccccc2)cc1; target = Genome polyprotein, 3C protease (Human hepatitis A virus genotype IB, UniProt P08617, C1543S); IC50 = ~75 µM and 75 µM
SMILES = COC(=O)C=CCCC(NC(=O)c1ccncc1C(=O)O)C(=O)NC(C(=O)N1CC(=O)CC1C(=O)NC(C(=O)NC(C(N)=O)C1CCCCC1)C1CCCCC1)C(C)(C)C (stereo not drawn); target = coagulation factor XIII A chain (Oryctolagus cuniculus, UniProt A0A5F9CS22); test = transamidation activity, inhibitor; conditions = rabbit enzyme, with: dansylcadaverine into N,N-dimethylcasein; IC50 = 0.007 ± 0.0017 µM
SMILES = O=C(CCS)Nc1ccccc1-c1nn[nH]n1; target = blaNDM-1 (Klebsiella pneumoniae, UniProt C7C422); test = enzyme activity, inhibitor, fluorescence; conditions = with preincubation; IC50 = 3.16 µM
SMILES = CCOC(=O)c1ccc(-c2ccc(OC(=O)N(C)Cc3cccc(-c4ccncc4)c3)cc2)cc1; target = CES1; test = enzyme activity in cells, inhibitor; IC50 = ~0.05 µM
SMILES = COc1ccccc1[C@@H](NS(=O)(=O)c1cc2ccc(O)nc2cc1Cl)C(=O)N(CC(=O)NCCn1cc(COCCOCCOCC(=O)N[C@H](C(=O)N2C[C@H](O)C[C@H]2C(=O)NCc2ccc(-c3scnc3C)cc2)C(C)(C)C)nn1)Cc1cccs1; target = OGT (Homo sapiens, UniProt O15294); test = enzyme activity, inhibitor, fluorescence; IC50 = 0.61 µM
SMILES = CC1(C)C=Cc2c(ccc3c(=O)cc(-c4ccccc4)oc23)O1; target = APP (Homo sapiens, UniProt P05067); test = amyloid aggregation, inhibitor, fluorescence; IC50 = 169 µM and 170 µM
SMILES = CC(=O)SC[C@@H](C)C(=O)Nc1ccccc1-c1nn[nH]n1; target = Metallo-beta-lactamase type 2 (Serratia marcescens, UniProt P52699); test = inhibitor; conditions = 10 min preincubation, with: FC5 substrate; IC50 = 30.4 µM
SMILES = CC[C@H](C)[C@@H]1NC(=O)[C@H](CC(C)C)NC(=O)[C@H](C(C)C)NC(=O)[C@H](CC(C)C)NC(=O)[C@H](CCCCN)NC(=O)[C@H](CC(N)=O)NC(=O)[C@H](Cc2ccccc2)NC(=O)[C@H](Cc2ccccc2)NC(=O)[C@H](CCCNC(=N)N)NC(=O)[C@H](Cc2ccccc2)NC(=O)[C@H](C(C)C)NC(=O)[C@H](Cc2ccc(O)cc2)NC(=O)[C@H]([C@@H](C)CC)NC(=O)[C@H]([C@@H](C)O)NC(=O)[C@@H](Cc2ccc(O)cc2)NC(=O)CSC[C@@H](C(=O)NCC(N)=O)NC(=O)[C@H](CC(N)=O)NC1=O; target = NNMT; test = enzyme activity, inhibitor, mass spectrometry; IC50 = 1.13 µM
SMILES = CC(=O)N[C@@H](CCCNC(=N)N)C(=O)N[C@H](C(=O)N1CCC[C@H]1C(=O)N[C@@H](COP(=O)(O)O)C(=O)N[C@@H](CC(C)C)C(=O)N1CCC[C@H]1C(=O)NCC(=O)N1CCC[C@H]1C(c1ccccc1)c1ccccc1)[C@@H](C)O; target = YWHAZ (Homo sapiens, UniProt P63104); test = peptide binding, inhibitor, competitive fluorescence polarization; conditions = 10 µM protein, with: 100 nM FAM-labelled diphosphorylated Tau peptide; IC50 = 5.9 µM
SMILES = CN(C)C(=O)[C@@H](NC(=O)c1cnccc1-c1ccc(C(F)(F)F)cc1)c1cccc(C(F)(F)F)c1; target = KLRK1 with ULBP6; test = ligand binding, inhibitor, TR-FRET; test system = HEK293 expressing NKG2D and DAP10; conditions = with: ULBP6-AF647; IC50 = 1.4 ± 0.2 µM
SMILES = NC(=O)c1cccc(CCN(CC[C@H](N)C(=O)O)C[C@H]2O[C@@H](n3cnc4c(N)ncnc43)[C@H](O)[C@@H]2O)c1; target = BCDIN3D; test = enzyme activity, inhibitor, radiometric; IC50 = 19 µM
SMILES = CC(C)(O)c1ccccc1CC[C@H](c1cccc(/C=C/c2ccc3ccc(Cl)cc3n2)c1)S(=O)(=O)CC1(CC(=O)O)CC1; target = Cytochrome P450 2C8 (CYP2C8, Homo sapiens, UniProt P10632); test = inhibitor; test system = human liver microsomes; conditions = pH 7.4, with: paclitaxel; IC50 = 0.02 µM
SMILES = CC[C@H](C)[C@H](NC(=O)[C@H](CO)NC(=O)[C@H](Cc1ccc(O)cc1)NC(=O)[C@H](CC(=O)O)NC(=O)[C@H](CO)NC(=O)[C@@H](NC(=O)[C@H](Cc1ccccc1)NC(=O)[C@@H](NC(=O)CNC(=O)[C@@H]1CCCN1C(=O)[C@H](C)NC(=O)[C@@H](N)Cc1ccc(O)cc1)[C@@H](C)O)[C@@H](C)CC)C(=O)N[C@@H](C)C(=O)N[C@@H](CCSC)C(=O)N[C@@H](CC(=O)O)C(=O)N[C@@H](CCCCN)C(=O)N[C@H](C(=O)N[C@@H](CCCNC(=N)N)C(=O)N[C@@H](CCC(N)=O)C(=O)N[C@@H](CCC(N)=O)C(=O)N[C@@H](CC(=O)O)C(=O)N[C@@H](Cc1ccccc1)C(=O)N[C@H](C(=O)N[C@@H](CC(N)=O)C(=O)N[C@@H](Cc1c[nH]c2ccccc12)C(=O)N[C@@H](CC(C)C)C(=O)N[C@@H](CC(C)C)C(=O)N[C@@H](C)C(=O)N[C@@H](CCC(N)=O)C(=O)N[C@@H](CCCNC(=N)N)C(=O)NCC(=O)N[C@@H](CCCCN)C(=O)N[C@@H](CCCCN)C(=O)N[C@@H](CO)C(=O)N[C@@H](CC(=O)O)C(=O)N[C@@H](Cc1c[nH]c2ccccc12)C(=O)N[C@@H](CCCCN)C(=O)N[C@@H](Cc1c[nH]cn1)C(=O)N[C@@H](CC(N)=O)C(=O)N[C@H](C(=O)N[C@H](C(=O)N[C@@H](CCC(N)=O)C(=O)O)[C@@H](C)O)[C@@H](C)CC)C(C)C)[C@@H](C)CC; target = Gastric inhibitory polypeptide receptor (Rattus norvegicus, UniProt P43219); test = ligand displacement in cells, radioligand; IC50 = 0.00794 µM
SMILES = COC(=O)C[C@H](NC(=O)[C@H](C)NC(=O)[C@@H](NC(=O)[C@H](CC(=O)OC)NC(=O)[C@@H](NC(=O)c1ccc2ccccc2n1)C(C)C)C(C)C)C(=O)COc1c(F)cccc1F; target = Caspase-2 (Homo sapiens, UniProt P42575); test = enzyme activity, inhibitor, absorbance; IC50 = 0.48 µM
SMILES = CC[C@H](C)[C@@H]1NC(=O)[C@H](CC(C)C)NC(=O)[C@H](Cc2ccc(O)cc2)NC(=O)[C@H]([C@@H](C)CC)NC(=O)[C@H]([C@@H](C)O)NC(=O)[C@H](Cc2ccc(O)cc2)NC(=O)CSC[C@@H](C(=O)NCC(N)=O)NC(=O)[C@H](CO)NC(=O)[C@H](Cc2c[nH]cn2)NC(=O)[C@H](C(C)C)NC(=O)[C@H](C)NC(=O)[C@H](Cc2ccccc2)NC(=O)[C@H](CC(C)C)NC(=O)[C@H](Cc2ccc(O)cc2)NC(=O)[C@H](CCCNC(=N)N)NC(=O)[C@H](CCCCN)NC(=O)[C@H](CCC(N)=O)NC1=O; target = NNMT; test = enzyme activity, inhibitor, mass spectrometry; IC50 = 2.24 µM
SMILES = CNC(=O)NC(=N)NCCC[C@@H]1NC(=O)[C@@H](C)NC(=O)C[C@@H](C(=O)O)NC(=O)C[C@@H](C(=O)O)NC(=O)[C@H](Cc2ccccc2)NC1=O; target = Endochitinase B1 (Aspergillus fumigatus, UniProt Q873X9); test = enzyme activity, inhibitor, fluorometric; conditions = 10 min, pH 5.5, 37 °C, with: 20 µM 4-MU-chitobiose; IC50 = 60 µM
